Results gathered from unrelated publications.
Each line is one published result; not all experiments were run side by side.

Structure (SMILES) | organism | assay | test system | setting | MIC
CC1(C)SC2C(NC(=O)C(NC(=O)C3=C(O)C(Cc4ccc(O)cc4)NC3=O)c3ccccc3)C(=O)N2C1C(=O)O (centres unmarked) | Escherichia coli | broth microdilution | Keio mutant JW0587-1 | 18 h, enterobactin-related gene | 50 µg/mL
O=C(CCCCCCCCCCOc1ccccc1)NP(=O)(O)O | Streptococcus pneumoniae |  |  |  | 100 µg/mL
CC1(C)SC2C(NC(=O)C(NC(=O)C3=C(O)C(Cc4ccsc4)NC3=O)c3ccccc3)C(=O)N2C1C(=O)O (centres unmarked) | Escherichia coli | broth microdilution | Keio mutant JW5086-3 | 18 h, ferrienterobactin permease gene | 25 µg/mL
CC(C)C[C@H](NC(=O)[C@@H](NC(=O)[C@H](CCCNC(=N)N)NC(=O)[C@H](CCC(N)=O)NC(=O)[C@H](Cc1ccccc1)NC(=O)[C@H](Cc1ccc(O)cc1)NC(=O)[C@H](CC(N)=O)NC(=O)[C@H](Cc1c[nH]c2ccccc12)NC(=O)[C@@H](NC(=O)[C@H](CCCNC(=N)N)NC(=O)[C@H](CCCCN)NC(=O)[C@@H](N)Cc1ccccc1)C(C)C)C(C)C)C(=O)N[C@H](C(=O)N[C@@H](CCCCN)C(=O)N[C@@H](CCCCN)C(=O)N[C@@H](Cc1ccc(O)cc1)C(=O)N[C@@H](C)C(N)=O)C(C)C | Salmonella typhimurium | broth dilution | SL1344 |  | 6.3 µM
CCN1CCN(C(=O)N[C@@H](C(=O)N[C@@H]2C(=O)N3[C@@H]2SC(C)(C)[C@@H]3C(=O)O)c2ccccc2)C(=O)C1=O | Escherichia coli | broth microdilution | Keio mutant JW5086-3 | 18 h, ferrienterobactin permease gene | 3.12 µg/mL
O=C(O)c1cccc(C(=O)O)n1 | Providencia stuartii |  | NDM-1 producer | 32 µg/mL, MIC of meropenem, with: meropenem | 0.25 µg/mL
CC(C)C[C@@H]1NC(=O)[C@@H](Cc2ccccc2)NC(=O)[C@H](CCN)NC(=O)[C@@H](NC(=O)[C@H](CCN)NC(=O)[C@@H](N)[C@@H](C)O)CCNC(=O)[C@H]([C@@H](C)O)NC(=O)[C@H](CCN)NC(=O)[C@H](CCN)NC1=O | Escherichia coli | checkerboard | BW25113 mcr-1 | compound alone | > 200 µg/mL
N=C(N)NCCC[C@H](NC(=O)CN)C(=O)N[C@@H](Cc1c[nH]c2ccccc12)C(=O)N[C@@H](CCCNC(=N)N)C(=O)N[C@@H](Cc1c[nH]c2ccccc12)C(=O)N[C@@H](Cc1c[nH]c2ccccc12)C(=O)N[C@@H](Cc1c[nH]c2ccccc12)C(=O)N[C@@H](CCCNC(=N)N)C(=O)N[C@@H](Cc1c[nH]c2ccccc12)C(=O)N[C@@H](CCCNC(=N)N)C(=O)N[C@@H](Cc1ccccc1)C(N)=O | Candida albicans | broth microdilution | 56452, RPMI 1640-MOPS | 48 h, 30 °C | 8 µM
CC1(C)SC2C(NC(=O)C(NC(=O)C3=C(O)C(Cc4ccc([N+](=O)[O-])cc4)NC3=O)c3ccccc3)C(=O)N2C1C(=O)O (centres unmarked) | Escherichia coli | broth microdilution | isolate IU, CTX-M-14, TEM-1 | no clavulanic acid | > 200 µg/mL
CCCCCCCCCCCC(=O)CP(=O)(O)O | Streptococcus pneumoniae |  |  |  | 25 µg/mL
CC(C)C[C@H](NC(=O)[C@H](CCCNC(=N)N)NC(=O)[C@H](Cc1c[nH]c2ccccc12)NC(=O)[C@H](CCCNC(=N)N)NC(=O)[C@H](Cc1c[nH]c2ccccc12)NC(=O)[C@H](Cc1c[nH]c2ccccc12)NC(=O)[C@H](Cc1c[nH]c2ccccc12)NC(=O)[C@H](CCCNC(=N)N)NC(=O)[C@H](Cc1c[nH]c2ccccc12)NC(=O)[C@H](CCCNC(=N)N)NC(=O)CN)C(N)=O | Candida albicans | broth microdilution | CGMCC 2.209, RPMI 1640-MOPS | 48 h, 30 °C, with: CaCl2 2 mM | 64 µM
N=C(N)c1ccc(OCc2ccccc2COc2ccc(C(=N)N)cc2)cc1 | Escherichia coli |  | mcr-1 | 20 h, in combination, checkerboard, with: rifampicin | 25 µg/mL
CC1(C)SC2C(NC(=O)C(NC(=O)C3=C(O)C(Cc4ccc(F)cc4)NC3=O)c3ccccc3)C(=O)N2C1C(=O)O (centres unmarked) | Escherichia coli | broth microdilution | isolate IU 356 A, KPC-3, VIM-1, TEM | with: clavulanic acid 6 µg/mL | > 200 µg/mL
N=C(N)NCCC[C@H](NC(=O)[C@H](Cc1c[nH]c2ccccc12)NC(=O)[C@H](CCCNC(=N)N)NC(=O)[C@H](Cc1c[nH]c2ccccc12)NC(=O)[C@H](Cc1c[nH]c2ccccc12)NC(=O)[C@H](Cc1c[nH]c2ccccc12)NC(=O)[C@H](CCCNC(=N)N)NC(=O)[C@H](Cc1c[nH]c2ccccc12)NC(=O)[C@@H](N)CCCNC(=N)N)C(=O)N[C@@H](Cc1c[nH]c2ccccc12)C(N)=O | Candida albicans | broth microdilution | 58288, RPMI 1640-MOPS | 48 h, 30 °C | 8 µM
CC1(C)SC2C(NC(=O)C(NC(=O)C3=C(O)C(Cc4ccco4)NC3=O)c3ccccc3)C(=O)N2C1C(=O)O (centres unmarked) | Escherichia coli | broth microdilution | isolate IU, CTX-M-14, TEM-1 | with: clavulanic acid 6 µg/mL | 50 µg/mL
CC[C@H](C)[C@H](NC(=O)CN)C(=O)NCC(=O)N[C@@H](C)C(=O)N[C@H](C(=O)N[C@@H](CC(C)C)C(=O)N[C@@H](CCCCN)C(=O)N[C@H](C(=O)N[C@@H](CC(C)C)C(=O)N[C@H](C(=O)N[C@H](C(=O)NCC(=O)N[C@@H](CC(C)C)C(=O)N1CCC[C@H]1C(=O)N[C@@H](C)C(=O)N[C@@H](CC(C)C)C(=O)N[C@H](C(=O)N[C@@H](CO)C(=O)N[C@@H](Cc1c[nH]c2ccccc12)C(=O)N[C@H](C(=O)N[C@@H](CCCCN)C(=O)N[C@@H](CCCNC(=N)N)C(=O)N[C@@H](CCCCN)C(=O)N[C@@H](CCCNC(=N)N)C(=O)N[C@@H](CCC(N)=O)C(=O)N[C@@H](CCC(N)=O)C(N)=O)[C@@H](C)CC)[C@@H](C)CC)[C@@H](C)O)[C@@H](C)O)C(C)C)C(C)C | Candida albicans | broth microdilution | 56452, RPMI-1640 | 48 h, 30 °C | 4 µM
CC1(C)SC2C(NC(=O)C(NC(=O)C3=C(O)C(c4ccccc4)NC3=O)c3ccccc3)C(=O)N2C1C(=O)O (centres unmarked) | Escherichia coli | broth microdilution | isolate IU 356 A, KPC-3, VIM-1, TEM | no clavulanic acid | > 200 µg/mL
CC[C@H](C)[C@H](NC(=O)[C@H](CCCCN)NC(=O)[C@@H](NC(=O)[C@H](Cc1ccc(O)cc1)NC(=O)[C@H](CCCCN)NC(=O)[C@H](CCCCN)NC(=O)CNC(=O)[C@H](CCCCN)NC(=O)[C@@H](NC(=O)[C@H](C)NC(=O)[C@H](CC(C)C)NC(=O)[C@H](Cc1c[nH]c2ccccc12)NC(=O)CNC(=O)[C@@H](NC(=O)[C@H](Cc1ccccc1)NC(=O)[C@H](CCCCN)NC(=O)[C@H](CC(C)C)NC(=O)[C@H](Cc1ccccc1)NC(=O)[C@H](C)NC(=O)CNC(=O)[C@@H](N)CCSC)C(C)C)[C@@H](C)O)C(C)C)C(=O)N[C@@H](C)C(=O)N[C@@H](Cc1c[nH]c2ccccc12)C(=O)N[C@@H](CC(=O)O)C(=O)N[C@@H](Cc1c[nH]cn1)C(=O)N[C@@H](CCCCN)C(=O)NCC(=O)N[C@H](C(=O)N[C@H](C(=O)N[C@@H](CCSC)C(=O)N[C@@H](CCCCN)C(=O)N[C@@H](Cc1c[nH]c2ccccc12)C(=O)N[C@@H](CC(C)C)C(=O)N[C@@H](CC(N)=O)C(=O)N[C@@H](C)C(=O)NCC(=O)N[C@@H](CCC(N)=O)C(=O)N[C@H](C(=O)N[C@@H](Cc1ccccc1)C(=O)N[C@H](C(=O)N[C@@H](Cc1c[nH]c2ccccc12)C(=O)N[C@H](C(=O)N[C@@H](Cc1ccc(O)cc1)C(=O)N[C@@H](CCC(=O)O)C(=O)N[C@@H](CCC(N)=O)C(=O)N[C@H](C(=O)N[C@@H](CCCCN)C(=O)N[C@@H](CCCCN)C(=O)N[C@@H](CC(C)C)C(=O)N[C@@H](Cc1c[nH]c2ccccc12)C(=O)N[C@H](C(=O)O)[C@@H](C)O)[C@@H](C)CC)C(C)C)[C@@H](C)O)[C@@H](C)O)[C@@H](C)CC)[C@@H](C)O | Streptococcus suis | broth microdilution | CECT 958 | 37 °C | 3.9 µg/mL
C[C@H](NC(=O)[C@H](CCCNC(=N)N)NC(=O)[C@H](Cc1c[nH]c2ccccc12)NC(=O)[C@H](CCCNC(=N)N)NC(=O)[C@H](Cc1c[nH]c2ccccc12)NC(=O)[C@H](Cc1c[nH]c2ccccc12)NC(=O)[C@H](Cc1c[nH]c2ccccc12)NC(=O)[C@H](CCCNC(=N)N)NC(=O)[C@H](Cc1c[nH]c2ccccc12)NC(=O)[C@@H](N)CCCNC(=N)N)C(N)=O | Candida albicans | broth microdilution | CGMCC 2.209, RPMI 1640-MOPS | 48 h, 30 °C, with: CaCl2 2 mM | 32 µM
O=C(NN=Cc1ccc(O)c(Br)c1)c1cccc(Br)c1 | Cryptococcus neoformans |  |  | compound alone, with: amphotericin | 0.3 µg/mL
CN[C@H](CC(C)C)C(=O)N[C@H]1C(=O)N[C@@H](CC(N)=O)C(=O)N[C@H]2C(=O)N[C@H]3C(=O)N[C@H](C(=O)N[C@H](C(=O)O)c4cc(O)cc(O)c4-c4cc3ccc4O)[C@H](O)c3ccc(c(Cl)c3)Oc3cc2cc(c3O[C@@H]2O[C@H](CO)[C@@H](O)[C@H](O)[C@H]2O[C@H]2C[C@](C)(N)[C@H](O)[C@H](C)O2)Oc2ccc(cc2Cl)[C@H]1O | Clostridioides difficile | agar dilution anaerobic | ATCC 4381 | 48 h | 1 µg/mL
CCCCCC/C=C\CCCCCCCCCC(=O)NP(=O)(O)O | Streptococcus pneumoniae |  |  |  | > 200 µg/mL
OC(Cn1cncn1)(Cn1cncn1)c1ccc(F)cc1F | Candida albicans | broth microdilution | CGMCC 2.209, RPMI 1640-MOPS | 48 h, 30 °C | 8 µM
CCCCCCCCCCCCCCCC(=O)NS(=O)(=O)Oc1ccc(OC)cc1 | Streptococcus pneumoniae |  |  |  | 12.5 µg/mL
CC(C)CC1NC(=O)C(C(=O)NC(C(=O)NC2C(=O)N3C2SC(C)(C)C3C(=O)O)c2ccccc2)=C1O (centres unmarked) | Escherichia coli | broth microdilution | ATCC 35218, low-level TEM-1 | with: clavulanic acid 6 µg/mL | 50 µg/mL
CC[C@H](C)[C@H](NC(=O)CN)C(=O)NCC(=O)N[C@@H](C)C(=O)N[C@H](C(=O)N[C@@H](CC(C)C)C(=O)N[C@@H](CCCCN)C(=O)N[C@H](C(=O)N[C@@H](CC(C)C)C(=O)N[C@H](C(=O)N[C@H](C(=O)NCC(=O)N[C@@H](CC(C)C)C(=O)N1CCC[C@H]1C(=O)N[C@@H](C)C(=O)N[C@@H](CC(C)C)C(=O)N[C@H](C(=O)N[C@@H](CO)C(=O)N[C@@H](Cc1c[nH]c2ccccc12)C(=O)N[C@H](C(=O)N[C@@H](CCCCN)C(=O)N[C@@H](CCCNC(=N)N)C(=O)N[C@@H](CCCCN)C(=O)N[C@@H](CCCNC(=N)N)C(=O)N[C@@H](CCC(N)=O)C(=O)N[C@@H](CCC(N)=O)C(N)=O)[C@@H](C)CC)[C@@H](C)CC)[C@@H](C)O)[C@@H](C)O)C(C)C)C(C)C | Candida albicans | broth microdilution | SP3902, RPMI 1640-MOPS | 48 h, 30 °C | 2 µM

Repeated from above:
Structure (SMILES) | organism | assay | test system | setting | MIC
CC1(C)SC2C(NC(=O)C(NC(=O)C3=C(O)C(Cc4ccco4)NC3=O)c3ccccc3)C(=O)N2C1C(=O)O (centres unmarked) | Escherichia coli | broth microdilution | isolate IU, CTX-M-14, TEM-1 | with: clavulanic acid 6 µg/mL | 50 µg/mL
CC[C@H](C)[C@H](NC(=O)CN)C(=O)NCC(=O)N[C@@H](C)C(=O)N[C@H](C(=O)N[C@@H](CC(C)C)C(=O)N[C@@H](CCCCN)C(=O)N[C@H](C(=O)N[C@@H](CC(C)C)C(=O)N[C@H](C(=O)N[C@H](C(=O)NCC(=O)N[C@@H](CC(C)C)C(=O)N1CCC[C@H]1C(=O)N[C@@H](C)C(=O)N[C@@H](CC(C)C)C(=O)N[C@H](C(=O)N[C@@H](CO)C(=O)N[C@@H](Cc1c[nH]c2ccccc12)C(=O)N[C@H](C(=O)N[C@@H](CCCCN)C(=O)N[C@@H](CCCNC(=N)N)C(=O)N[C@@H](CCCCN)C(=O)N[C@@H](CCCNC(=N)N)C(=O)N[C@@H](CCC(N)=O)C(=O)N[C@@H](CCC(N)=O)C(N)=O)[C@@H](C)CC)[C@@H](C)CC)[C@@H](C)O)[C@@H](C)O)C(C)C)C(C)C | Candida albicans | broth microdilution | 56452, RPMI-1640 | 48 h, 30 °C | 4 µM
